Assay results gathered from unrelated publications.
Protocols differ between the studies behind these lines. ± gives the spread as reported.

SMILES | cell line | assay | conditions | how to read | measurement | value
CC(C)CC(O)(CC(C)C)c1cn(C(=O)N2CCCC2)nn1 | mouse T-cells | protein abundance, unenriched SILAC proteomics, refers to: S100A6 | 1 nM, 6 h, protein median | relative to: DMSO | SILAC ratio | 1.03 ± 0.15
COc1cc(C)c(OC)c2c1OCO2 | HCT-116 | cell growth or viability | 72 h |  | GI50 | > 250 µM
CC(=O)N1CCCC[C@H]1C(=O)NC(C)(C)C(=O)N1CCCC[C@H]1C(=O)NC(C)(C)C(=O)NC(C)(C)C(=O)N[C@@H](CC(C)C)C(=O)NC[C@@H](C)C(=O)NCC(=O)NC(C)(C)C(=O)NC(C)(C)C(=O)N1CCCC[C@H]1C(=O)NC(C)(C)C(=O)NCC(=O)N[C@@H](CC(C)C)C(=O)NC(C)(C)C(=O)N[C@@H](CC(C)C)C[N+]1=C2CCCN2CCC1 | 39 cancer cell lines |  | 48 h, mean over panel |  | GI50 | 0.933 µM
CC(=O)O[C@@H]1[C@H](OC(C)=O)[C@@H](C)O[C@H]1n1cc(F)c(NC(=O)/C=C/c2ccc(O)c(O)c2)nc1=O | ASPC1 | cell viability, MTT |  | relative to: NHDF fibroblasts over ASPC1 | selectivity index | 1.23
CC=CCC(C)C(O)C1C(=O)NC(CC)C(=O)N(C)C(OCC)C(=O)N(C)C(CC(C)(C)O)C(=O)NC(C(C)C)C(=O)N(C)C(CC(C)C)C(=O)NC(C)C(=O)NC(C)C(=O)N(C)C(CC(C)C)C(=O)N(C)C(CC(C)C)C(=O)N(C)C(C(C)C)C(=O)N1C (stereo not drawn) | HepG2-hNTCP-C4 | preS1 attachment to NTCP, inhibitor | 40 µM |  | preS1 binding | decreased
COC1CC(=O)N(C)C=CCCCC(=O)N(C)C(C(C)C)C(=O)N(C)C(CC(C)C)C(=O)OC(C(C)C)CC(C)C1 (stereo not drawn) | HCT-116 | RNA sequencing, refers to: ABRA signalling pathway | 20 µM, 12 h | direction not given | pathway activation z-score | 2.45
CCOP(=O)(OCC)OCCCCOC(=O)CC1=C(C)C(=Cc2ccc([S+](C)[O-])cc2)c2ccc(F)cc21 (stereo not drawn) | H358 | cell proliferation, BrdU incorporation | IC50 concentration, 24 h |  | inhibition | 80%
CC(C)c1cnn2c(NCc3ccccc3)cc(N[C@@H](CO)[C@H](O)CO)nc12 | MCF7/MX (ABCG2-overexpressing) | cell growth, sulforhodamine B | 72 h | relative to: MCF7/MX over parental MCF7 | resistance factor | 15 fold
C[C@H]1C(OCCCCCCCCCC[P+](c2ccccc2)(c2ccccc2)c2ccccc2)O[C@@H]2O[C@@]3(C)CCC4[C@H](C)CCC1[C@]42OO3 (stereo partly drawn) | T24 | MTT | 72 h | relative to: HUVEC IC50 over T24 IC50 | selectivity index | 3.07
O=C1/C(=C/c2ccc3c(c2)OCCO3)SC(=S)N1[C@@H]1O[C@H](CO)[C@@H](O)[C@H](O)[C@H]1O | HepG2 | refers to: Casp-9 | IC50, 48 h | relative to: untreated | mRNA fold change | 8.4 fold
CC[C@H]1OC(=O)[C@H](C(C)C)NC(=O)[C@H](C)OC(=O)[C@@H](C(C)C)NC(=O)[C@@H](C(C)C)OC(=O)[C@H](C(C)C)NC(=O)[C@H](C)OC(=O)[C@@H](C(C)C)NC(=O)[C@@H](C(C)C)OC(=O)[C@H](C(C)C)NC(=O)[C@H](C)OC(=O)[C@@H](C(C)C)NC1=O | U-251 | PI staining flow cytometry | 0.8 µM, 12 h |  | S phase cells | 21.9%
CC[C@@]1(OC(=O)CCC(=O)NCCCC[C@H](NC(=O)[C@H](Cc2ccccc2)NC(=O)[C@H](Cc2ccccc2)NC(=O)CCSC2=C(/C=C/C3=[N+](C)c4ccccc4C3(C)C)CCC/C2=C\C=C2\N(C)c3ccccc3C2(C)C)C(=O)N[C@@H](CCCCNC(=O)CCCC[C@@H]2SC[C@@H]3NC(=O)N[C@@H]32)C(=O)O)C(=O)OCc2c1cc1n(c2=O)Cc2cc3ccccc3nc2-1 | 4T1 | CCK-8 | 5 µM, 2 h then 24 h, added: 808 nm laser 1 W/cm2 5 min | relative to: untreated | viability | 52.4%
CCCCNC(P(=O)(O)O)P(=O)(O)O | HeLa and A549 | Amplex Red | concentration not given | up to | cellular cholesterol reduction | ≤ 15%
COC(=O)[C@H](CC(C)C)NC(=O)[C@@H]1CCCN1C(=O)[C@@H](NC(=O)[C@H](CCC(=O)C=[N+]=[N-])NC(=O)OCc1ccccc1)C(C)C | YAC128 mouse medium spiny neurons |  | concentration not given, added: NMDA | relative to: wild-type neurons | increase in protection | 7%
CC[C@H](C)[C@H](NC(=O)[C@H](Cc1ccccc1)NC(=O)[C@@H](N)C(C)C)C(=O)N[C@@H](C)C(N)=O | PC-12 | Aβ42-induced neurotoxicity, inhibitor, MTT | concentration not given, 6 h, 37 °C, peptide to Aβ42 1:2, added: Aβ42 2 µM | relative to: untreated cells | viability | 100%
CC/C=C\C/C=C\C/C=C\C/C=C\C/C=C\C/C=C\CCC(=O)Nc1ccn(C2OC(CO)C(O)C2(F)F)c(=O)n1 (stereo not drawn) | COLO 205 | NCI60 screen |  |  | CC50 | 50.7 µM
C[C@H]1C(OCCCCCCCC[P+](c2ccccc2)(c2ccccc2)c2ccccc2)O[C@@H]2O[C@@]3(C)CCC4[C@H](C)CCC1[C@]42OO3 (stereo partly drawn) | J82 and T24 | western blot, refers to: CDK4 | concentration not given, 48 h |  | protein level | decreased
COc1cc(C(=O)NCCOCCOCCOCCNC(=O)c2ccc([18F])nc2)ccc1NC(=O)C1NC(CC(C)(C)C)C(C#N)(c2ccc(Cl)cc2F)C1c1cccc(Cl)c1F (stereo not drawn) | SJSA-1 |  | 1 h |  | maximal uptake | 1090 ± 84 %/mg
CC[C@@]1(O)C(=O)OCc2c1cc1n(c2=O)Cc2cc3cc(OC(=O)CCCC(=O)NCC(=O)N[C@@H](Cc4ccccc4)C(=O)N[C@@H](Cc4ccccc4)C(=O)N[C@@H](Cc4ccc(OP(=O)(O)O)cc4)C(=O)NCCSSCCNC(=O)CCC(=O)N[C@@H](CCC(=O)O)C(=O)N[C@@H](CCCNC(=N)N)C(=O)NCC(=O)N[C@@H](CC(=O)O)C(=O)O)ccc3nc2-1 | HepG2 | confocal microscopy | 100 µM, 2 h, added: chlorpromazine 30 µM |  | cellular uptake | inhibited
N[C@@H](CCC(=O)N[C@@H](CS[Se]Cc1ccc(-c2cc(C(F)(F)F)nn2-c2ccc(S(N)(=O)=O)cc2)cc1)C(=O)NCC(=O)O)C(=O)O | UACC-903 |  | 50 µM |  | caspase-3/7 activity | decreased
CC12CCC3(CCC(=O)NCCNc4ccnc5cc(Cl)ccc45)C(C)(OOC3(C)O1)O2 | HL-60 | cell growth or viability, resazurin | 10 µM, 48 h |  | inhibition | 0%

A few entries again:
SMILES | cell line | assay | conditions | how to read | measurement | value
CC=CCC(C)C(O)C1C(=O)NC(CC)C(=O)N(C)C(OCC)C(=O)N(C)C(CC(C)(C)O)C(=O)NC(C(C)C)C(=O)N(C)C(CC(C)C)C(=O)NC(C)C(=O)NC(C)C(=O)N(C)C(CC(C)C)C(=O)N(C)C(CC(C)C)C(=O)N(C)C(C(C)C)C(=O)N1C (stereo not drawn) | HepG2-hNTCP-C4 | preS1 attachment to NTCP, inhibitor | 40 µM |  | preS1 binding | decreased
COC1CC(=O)N(C)C=CCCCC(=O)N(C)C(C(C)C)C(=O)N(C)C(CC(C)C)C(=O)OC(C(C)C)CC(C)C1 (stereo not drawn) | HCT-116 | RNA sequencing, refers to: ABRA signalling pathway | 20 µM, 12 h | direction not given | pathway activation z-score | 2.45
CCOP(=O)(OCC)OCCCCOC(=O)CC1=C(C)C(=Cc2ccc([S+](C)[O-])cc2)c2ccc(F)cc21 (stereo not drawn) | H358 | cell proliferation, BrdU incorporation | IC50 concentration, 24 h |  | inhibition | 80%
